Results from different studies.
Each line is one published result; not all experiments were run side by side. ± gives the spread as reported.

For `O=C(CCCN1CCC(O)(c2ccc(Cl)cc2)CC1)c1ccc(F)cc1`, “mean blood pressure” read 34 ± 0.1 mmHg (male Hartley guinea pigs, anaesthetized; intravenous, 1 mg/kg group, baseline before infusion).
`N#C[C@@]1(c2ccc3c(N)ncnn23)O[C@H](CO)[C@@H](O)[C@H]1O` gave an AUMC(0-inf) of 80700 ng·h²/mL (male beagle dogs, plasma; oral capsule, 6.5 mg/kg).
`CCO[C@H]1CCN(Cc2c(OC)cc(C)c3[nH]ccc23)[C@H](c2ccc(C(=O)O)cc2)C1` has an unbound Tmax of 3.5 h (human severe hepatic impairment, plasma; oral, 200 mg single dose, median).
With `COc1cc2c3c(n(CCCN4CCOCC4)c(=O)c2cc1OC)-c1cc2c(cc1C3=O)OCO2` the CL was 28 ± 9.7 L/h/m² (beagle dog, male, plasma; intravenous infusion, 10 mg/m^2, 1 h infusion, vehicle 1).
With `COc1ncc(-c2nc3c(n2C(C)C)[C@H](c2ccc(Cl)cc2)N(c2cc(Cl)cn(C)c2=O)C3=O)c(OC)n1` the median Tmax was 2.5 h (human patients, plasma; oral, 25 mg, low-dose arm, cycle 2 day 1).
The AUC(0-inf) of `CCN1CCN(Cc2ccc(NC(=O)c3ccc(C)c(NC(=O)c4cncc(-c5cccs5)c4)c3)cc2C(F)(F)F)CC1` is reported as 9750 ng·h/mL (C57BL/6 mice, epithelial lining fluid; intraperitoneal, 30 mg/kg).
With `Cc1ccc2cccc(C(=O)O)c2c1` the maximum haemolysis was 2.62% (sheep erythrocytes; 1 h, pH 7.5).
For `C=CCN1CC(=O)N2[C@@H](Cc3ccc(O)cc3F)C(=O)N(Cc3cccc(N4CC(N5CCN(CC)CC5)C4)n3)C[C@@H]2N1C(=O)NCc1ccccc1`, “treatment-related decreased appetite” read 25% (advanced solid tumour patients; oral, 120 mg twice daily, any grade, dose-escalation).
For `C[C@H]1CN(C(=O)CC#N)[C@]12CCN(c1ncnc3[nH]ccc13)C2`, “subjects with Dizziness” read 0% (healthy human; oral, 6 mg single).
Under “subjects with hyperuricaemia”, `O=C(O)CCC(=O)O.[2H]C([2H])([2H])Oc1cc(C)c2[nH]ccc2c1CN1CC[C@@H](C2CC2)C[C@H]1c1ccc(C(=O)O)cc1` is recorded as 25% (multiple ascending dose; healthy Chinese subjects; 50 mg twice daily).
`N=C(N)NC(=O)c1nc(Cl)c(NCc2cc(Cl)cc(Cl)c2)nc1N` gave a pKa of 8.69.
With `O=C(OC(C(F)(F)F)C(F)(F)F)N1CCN(Cc2cccc(Oc3ccccc3)c2)CC1` the k2 was 0.887 min⁻¹ (PET blocking study; rhesus monkey, brain CB; 0.3 mg/kg, compound pretreatment, together with: [18F]T-401 tracer).
With `C[C@@H](Oc1ccc(S(C)(=O)=O)cc1C(=O)N1C[C@@H]2C[C@]2(c2cc(C(F)(F)F)on2)C1)C(F)(F)F` the Vz/F was 324 L (young humans, plasma; oral, 10 mg once daily, single dose, geometric mean).
`CCOc1c([C@H](C)n2nc(C)c3c(N)ncnc32)cc(Cl)c(F)c1[C@@H]1CNC(=O)C1` — result for “observations QTcF >450 ≤480 ms”: 1.7% (ECG; previously treated B-cell malignancy patients; oral, 30 mg once daily, baseline QTcF ≤450 ms).
`CCC(CC)C(=O)Oc1cccc(C(O)CCN)c1.O=CO` (stereo not shown): “ERG a-wave amplitude” 0 µV (scotopic ERG; BALB/cJ mice; intraperitoneal, 10 mg/kg, 0.5 h dark adaptation, together with: 10,000 lx photobleach, 10 min).
For `Cc1c(-c2ccc(N3CCc4cccc(C(=O)Nc5nc6ccccc6s5)c4C3)nc2C(=O)O)cnn1CC12CC3(C)CC(C)(C1)CC(OCCNCC[C@H](O)CO)(C3)C2`, “QTcV interval change” read 16 ms (beagle dog, male, anaesthetised; intravenous infusion, 0.3 mg/kg/min, 105 min; relative to: vehicle).
`CNC(=O)c1ccc(-c2cnc3ncc(Cc4ccc5ncccc5c4)n3n2)cc1F` — result for “upper abdominal pain incidence (all grades)”: 6% (CTCAE v4.0, any causality; human cancer patients; oral, 600 mg twice daily, expansion, other tumours, RP2D).
`NC(=O)c1ncn([C@@H]2O[C@H](CO)[C@@H](O)[C@H]2O)c1O` has a pKa (basic) of < 2.
`CC(C)[C@@H](CS(=O)(=O)C(C)C)N1C(=O)[C@@](C)(CC(=O)O)C[C@H](c2cccc(Cl)c2)[C@H]1c1ccc(Cl)cc1` has an AUC(0-inf) of 56.9 ± 4.5 ng·h/mL (FVB mice Abcg2 knockout, spinal cord; intravenous, 20 mg/kg).
Under “prothrombin time change”, `CO[C@@H]1[C@H](OC(=O)N2CC(CCN3CCOCC3)C2)CC[C@]2(CO2)[C@H]1[C@@]1(C)O[C@@H]1CC=C(C)C` is recorded as 0.09 ± 0.37 s (human; dose not given, day 28, multiple ascending dose; relative to: baseline).
`CC(C)[N+](C)(CCOC(=O)C1c2ccccc2Oc2ccccc21)C(C)C` gave a remaining compound of 31.9% (human, both sexes, whole blood; 5 µM, 60 min).
For `N#C[C@@]1(c2ccc3c(N)ncnn23)O[C@H](CO)[C@@H](O)[C@H]1O`, the recovery was 93.4% (plasma protein binding; monkey plasma; 1 µM, time not given).
`Cc1c(C(=O)O)ccc2c3n(nc12)[C@@H]1[C@H](C3)N(CC2CC2)[C@@]2(C(=O)Nc3cc(Cl)ccc32)[C@H]1c1cccc(Cl)c1F`: “adverse event incidence” 24% (phase Ia trial, measured: Neutropenia; cancer patients; oral, dose not given).
Under “adverse drug reaction incidence”, `Cc1c(Cl)c(C)[n+]([O-])c(Cl)c1-c1noc(-c2cc(O)c(O)c([N+](=O)[O-])c2)n1` is recorded as 0% (healthy Chinese subjects; oral, 100 mg, 4 days).
`COc1nc(-c2cc(C)c(N[C@@H](C)c3cc(F)cc(F)c3)nn2)ccc1-n1cnc(C)c1` has a t1/2 of 4.1 h (cynomolgus monkey, male, plasma; oral, 2 mg/kg).
`Cc1ccc(Sc2ccccc2N2CCNCC2)c(C)c1`: “participants with TEAE” 0% (measured: thermal burn; healthy adult men; oral, 5 mg daily, 12 days).
`C=CC(=O)Nc1cc(Nc2nccc(-c3cn(C4CC4)c4ccccc34)n2)c(OC)cc1N(C)CCN(C)C` has an EO percentage of 1.24 ± 0.172% (BALB/c nude mouse, LU0387 xenograft, blood; oral, 40 mg/kg).
The DHEA-S level of `N#Cc1ccc2c(c1)[C@H]1CCCN(C(=O)c3ccc4[nH]cnc4c3)[C@H]1C2` is reported as 10.5 µmol/L (human, female; 80 mg, day 15).
Under “papular rash incidence”, `Cc1cc(Nc2cc3ncccc3c(N[C@@H]3C[C@H]4CC[C@@H](C3)N4CCC#N)n2)n[nH]1` is recorded as 17% (healthy human subjects; oral, 300 mg, 14 days, multiple ascending dose).
`N[C@@H](C[18F])C(=O)O`: “maximum bone uptake” ~26% (PET; athymic nude mouse; intravenous, 90 min).
`COc1cc(N)c(Cl)cc1C(=O)NC1CCN(CCCOc2ccc(F)cc2)CC1OC` (stereo not shown): “mean blood pressure” 32 ± 0.2 mmHg (male Hartley guinea pigs, anaesthetized; intravenous, 1 mg/kg over 10 min, after infusion).
With `Cn1c(C(F)(F)F)cc(=O)n(-c2cc(Oc3cccnc3OCC(=O)O)c(Cl)cc2F)c1=O` the Tmax was 3.5 h (beagle dog, female, plasma; oral capsule, 300 mg/kg/day epyrifenacil, week 13, 90-day study).
Under “change in gastrocnemius weight”, `CCc1cc(C(=O)NC)c2nccc(N3CCc4c(cc(Cn5ccnc5)cc4-c4cn(C)nc4C(F)(F)F)C3=O)c2c1` is recorded as -0.14% (Sprague Dawley rat; oral, 100 mg/kg once daily, 7 days; relative to: vehicle).
`C[C@@H](O)CCOC(=O)C[C@@H](C)O`: “mean arterial pressure” 80 mmHg (human; oral drink, 60 min post dose, mean).
Under “mean residue ellipticity”, `CC[C@H](C)[C@H](NC(=O)[C@H](C)N)C(=O)N[C@@H](CCCCN)C(=O)N[C@@H](C)C(=O)N[C@H](C(=O)N[C@@H](C)C(=O)N[C@@H](CCCCN)C(=O)N[C@@H](C)C(=O)N[C@@H](C)C(=O)NCC(N)=O)[C@@H](C)CC` is recorded as -1630 deg cm2/dmol (circular dichroism at 222 nm; 30% TFE; 100 µM).
For `COc1cc2[nH]c(C)c(-c3ccc(OC(C)C)cc3)c(=O)c2cc1Cl`, the Papp was 427 ×10⁻⁶ cm/s (PAMPA; pH 7.4).
`Cc1nc(-c2cnc(NC(C)C)n(C)c2=O)ccc1Oc1ccnc(-c2cnn(C)c2)c1` gave a Cmax of 7290 ng/mL (Beagle dog, male, plasma; oral, 30 mg/kg, crossover study, mean).
Under “subjects with Dysgeusia adverse event”, `Cc1cc(-c2nccc3c2ccn3CC(=O)Nc2ccc(-c3cnccn3)cn2)ccn1` is recorded as 11.1% (human; 20 mg once daily, multiple ascending dose).
The Papp of `C[C@@H]1O[C@@H](O[C@H]2[C@H](Oc3cc(O)c4c(c3)O[C@H](c3ccc(O)cc3)CC4=O)O[C@H](CO)[C@@H](O)[C@@H]2O)[C@H](O)[C@H](O)[C@H]1O` is reported as 0.207 ± 0.5 ×10⁻⁶ cm/s (PBS receiver; 50 mg/mL, 30 min, pH 6.8).
`C=CC1(C)CC(OC(=O)CSc2nc3ccccc3s2)C2(C)C(C)CCC3(CCC(=O)C32)C(C)C1O` (stereo not shown) gave a maximum haemolysis of 2.85% (sheep erythrocytes; 1 h, pH 7.5).
`CC(C)n1c(/C=C/C(O)CC(O)CC(=O)O)c(-c2ccc(F)cc2)c2ccccc21` (stereo not shown) gave an AUC(0-12 h) of 242 ± 83 ng·h/mL (human; oral, 20 mg, alone, control phase).
`Cc1cc(C)c(CNC(=O)c2cc(Cl)c3c(c2C)O[C@@](C)([C@H]2CC[C@H](N(C)C)CC2)O3)c(=O)[nH]1`: “grade ≥3 adverse event Pain” 4.2% (relapsed/refractory NHL patients; oral, 200 mg once daily, onset after cycle 1 day 1).
`CCCc1c(-c2ccc(O)cc2)nn(-c2ccc(O)cc2)c1-c1ccc(O)cc1` — result for “aglycone share of AUC(0-inf)”: 69% (rat, Long-Evans, female, serum; subcutaneous, 2 mg/kg single dose).
`O=C(Nc1nc2cccc(-c3ccc(CN4CCS(=O)(=O)CC4)cc3)n2n1)C1CC1`: “treatment-emergent adverse events” 0% (measured: diarrhoea; human rheumatoid arthritis patients; oral, 150 mg once daily, 4 weeks, regardless of relatedness).
For `COC(=O)[C@@H]1[C@H]2C[C@H]3c4[nH]c5ccccc5c4CCN3C[C@@H]2CC[C@@H]1O`, the concentration was 300 nM (rat, thoracic spinal cord; intraperitoneal, 1 mg/kg, 1.5 h, together with: tizanidine).
`O=C(O)CNC(=O)c1c(O)cc(CCc2ccccc2)n2ncnc12` has a pKa (acidic) of 3.3.
`COc1ccc(C[C@@H](C)[C@@H](C)Cc2ccc(OC)c(OC)c2)cc1OC` gave a Tmax of 1 h (beagle dog male, plasma; oral, 300 mg/kg/day, day 1, median).
For `CCn1c(C(=O)N(C2CC2)C2CC2)cc2c3c(ncn3C)c(Nc3cc(C)n(C)n3)nc21`, the plasma concentration was 7770 ng/mL (cancer patients; oral, 200 mg twice daily, day 15, 338.0 h).
`Cc1noc(C)c1-c1cc(C(O)(c2ccccn2)c2ccccn2)c2nc(C3CC3)[nH]c2c1` has a Ctau of 3.9 ng/mL (human patients, fasted, plasma; oral, 6 mg once daily, cycle 1 day 15, together with: enzalutamide once daily).
For `CCN1/C(=C/C(C)=O)Sc2ccc(F)cc21`, “diastolic blood pressure change” read 101 ± 3% (cynomolgus monkey; oral, 100 mg/kg, 4 h post-dose; relative to: pre-dose).
For `Cc1ccc(O)c(-n2nc3ccccc3n2)c1`, “daily dermal uptake” read 1190 ng/kg body weight/day (human, both sexes; topical, dose not given, sunscreen, age 2-3 years, mean).
For `CC(=O)NCCc1c[nH]c2ccc(O)cc12`, the specific activity was 25.4 ± 1.3 pmol/min/mg (sulfation, substrate; pooled human liver cytosol; 50 µM, 30 min, together with: 50 mM NaF).
For `CC1=NN(c2ccc(C)c(C)c2)C(=O)/C1=N\Nc1cccc(-c2cccc(C(=O)O)c2)c1O`, the Imax was 28.3 µM (healthy subjects, plasma; oral, 75 mg daily).
`Cc1ccc([C@@H]2O[C@H](CO)[C@@H](O)[C@H](O)[C@H]2O)cc1Cc1ccc(-c2ccc(F)cc2)s1`: “urinary magnesium excretion change” 14.5 mg (Japanese type 2 diabetes patients; 100 mg, day 5, 24 h urine collection; relative to: baseline).
`C[C@H](CS)C(=O)N1CCC[C@H]1C(=O)O` — result for “mean blood pressure”: 45 ± 0.4 mmHg (male Hartley guinea pigs, anaesthetized; intravenous, 10 mg/kg group, baseline before infusion).
`CC(C)(C(=O)N1CCOc2c(C#N)cncc2C1)C(F)F`: “subjects with TEAE” 16.7% (measured: vascular disorders; healthy humans, both sexes; oral, 30 mg single dose).
`COc1c(N2C[C@@H]3CCCN[C@@H]3C2)c(F)cc2c(=O)c(C(=O)O)cn(C3CC3)c12` — result for “mean blood pressure”: 37 ± 0.3 mmHg (male Hartley guinea pigs, anaesthetized; intravenous, 1 mg/kg group, baseline before infusion).
`CNC(=O)c1cc(Oc2ccc(NC(=O)Nc3cc(C(C)(C)C)nn3-c3ccc4ncccc4c3)c(F)c2)ccn1` — result for “patients with nervous system disorder AE”: 33% (measured: worst grade 1; human; oral, dose not given, cycles 1 and 2, High Cmax subgroup).
